Experimental data gathered from unrelated publications.
Protocols differ between the studies behind these lines. “And” joins repeats or separate records; there may be more than shown. ± marks the error that the study gave.
UniProt P00811, sequence (whole entry, looked up): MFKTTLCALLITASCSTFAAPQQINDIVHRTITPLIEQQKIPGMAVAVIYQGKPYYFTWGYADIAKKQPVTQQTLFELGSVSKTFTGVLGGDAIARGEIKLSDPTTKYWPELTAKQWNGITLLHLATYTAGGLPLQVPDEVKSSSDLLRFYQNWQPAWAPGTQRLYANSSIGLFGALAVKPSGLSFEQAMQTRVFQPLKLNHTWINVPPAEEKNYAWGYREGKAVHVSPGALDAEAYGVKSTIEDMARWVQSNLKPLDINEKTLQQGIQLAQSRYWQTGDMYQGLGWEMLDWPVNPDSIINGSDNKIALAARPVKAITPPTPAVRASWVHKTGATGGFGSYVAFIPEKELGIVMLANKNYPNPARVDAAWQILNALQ
UniProt Q8NE63, sequence (whole entry, looked up): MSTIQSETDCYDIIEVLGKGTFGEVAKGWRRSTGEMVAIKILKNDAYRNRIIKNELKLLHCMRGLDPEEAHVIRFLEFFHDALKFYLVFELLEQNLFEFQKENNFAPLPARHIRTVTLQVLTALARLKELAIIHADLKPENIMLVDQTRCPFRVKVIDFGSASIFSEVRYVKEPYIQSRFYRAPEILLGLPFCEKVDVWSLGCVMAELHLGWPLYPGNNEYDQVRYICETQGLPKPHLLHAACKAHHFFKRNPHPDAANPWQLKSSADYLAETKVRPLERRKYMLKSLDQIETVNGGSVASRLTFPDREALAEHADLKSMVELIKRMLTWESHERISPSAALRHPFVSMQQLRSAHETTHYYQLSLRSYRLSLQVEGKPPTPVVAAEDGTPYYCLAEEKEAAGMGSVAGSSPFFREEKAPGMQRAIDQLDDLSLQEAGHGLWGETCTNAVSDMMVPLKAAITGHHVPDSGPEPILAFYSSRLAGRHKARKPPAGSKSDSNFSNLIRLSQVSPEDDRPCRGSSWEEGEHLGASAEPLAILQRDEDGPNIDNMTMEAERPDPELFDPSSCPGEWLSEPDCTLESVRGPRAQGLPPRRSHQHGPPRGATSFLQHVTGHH
UniProt O13828, sequence (whole entry, looked up): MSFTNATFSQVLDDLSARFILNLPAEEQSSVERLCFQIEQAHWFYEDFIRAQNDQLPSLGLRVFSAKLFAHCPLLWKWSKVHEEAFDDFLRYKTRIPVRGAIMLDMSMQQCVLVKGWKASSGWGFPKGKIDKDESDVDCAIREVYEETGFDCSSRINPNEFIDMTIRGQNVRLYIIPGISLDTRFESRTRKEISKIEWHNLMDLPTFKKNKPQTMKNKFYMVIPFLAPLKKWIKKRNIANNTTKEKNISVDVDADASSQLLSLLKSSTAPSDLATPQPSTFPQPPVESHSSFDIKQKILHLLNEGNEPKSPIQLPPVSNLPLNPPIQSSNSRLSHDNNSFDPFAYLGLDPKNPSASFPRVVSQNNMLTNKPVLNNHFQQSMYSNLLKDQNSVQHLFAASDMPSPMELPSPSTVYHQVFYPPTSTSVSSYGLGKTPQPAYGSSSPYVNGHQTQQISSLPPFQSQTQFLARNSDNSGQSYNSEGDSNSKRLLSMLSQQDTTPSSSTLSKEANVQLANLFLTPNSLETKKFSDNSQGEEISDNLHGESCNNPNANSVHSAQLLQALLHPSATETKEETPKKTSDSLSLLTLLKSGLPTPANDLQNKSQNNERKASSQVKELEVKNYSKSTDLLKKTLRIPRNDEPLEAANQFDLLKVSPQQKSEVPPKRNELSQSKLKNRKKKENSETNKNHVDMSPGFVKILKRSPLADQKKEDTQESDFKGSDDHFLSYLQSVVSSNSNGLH
UniProt O43148, sequence (whole entry, looked up): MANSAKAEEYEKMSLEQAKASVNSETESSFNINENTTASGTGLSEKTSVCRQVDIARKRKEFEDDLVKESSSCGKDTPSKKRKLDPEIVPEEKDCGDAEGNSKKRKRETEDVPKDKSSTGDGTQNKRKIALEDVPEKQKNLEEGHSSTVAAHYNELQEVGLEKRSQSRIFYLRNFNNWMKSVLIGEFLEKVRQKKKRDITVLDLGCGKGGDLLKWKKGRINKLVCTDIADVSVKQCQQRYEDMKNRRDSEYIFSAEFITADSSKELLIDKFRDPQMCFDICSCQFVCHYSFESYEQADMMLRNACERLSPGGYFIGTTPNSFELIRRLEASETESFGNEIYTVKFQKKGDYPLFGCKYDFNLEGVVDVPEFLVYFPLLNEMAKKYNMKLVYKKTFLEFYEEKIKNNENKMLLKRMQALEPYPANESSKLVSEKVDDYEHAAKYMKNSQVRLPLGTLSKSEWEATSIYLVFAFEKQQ
UniProt O43353, sequence (whole entry, looked up): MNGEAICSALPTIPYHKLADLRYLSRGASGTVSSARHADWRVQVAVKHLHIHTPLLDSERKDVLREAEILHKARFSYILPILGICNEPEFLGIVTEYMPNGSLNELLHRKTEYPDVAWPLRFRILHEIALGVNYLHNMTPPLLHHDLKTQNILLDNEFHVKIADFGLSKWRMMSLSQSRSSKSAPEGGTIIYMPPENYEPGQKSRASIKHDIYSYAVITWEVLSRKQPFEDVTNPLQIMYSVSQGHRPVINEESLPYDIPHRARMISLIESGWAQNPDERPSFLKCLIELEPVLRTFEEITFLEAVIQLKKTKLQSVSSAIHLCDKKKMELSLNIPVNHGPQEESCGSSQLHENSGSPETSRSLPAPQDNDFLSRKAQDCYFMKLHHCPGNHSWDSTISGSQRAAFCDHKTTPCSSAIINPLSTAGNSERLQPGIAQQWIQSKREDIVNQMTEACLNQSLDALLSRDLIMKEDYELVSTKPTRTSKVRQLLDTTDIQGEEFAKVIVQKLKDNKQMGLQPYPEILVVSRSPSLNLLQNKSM
UniProt P27338, sequence (whole entry, looked up): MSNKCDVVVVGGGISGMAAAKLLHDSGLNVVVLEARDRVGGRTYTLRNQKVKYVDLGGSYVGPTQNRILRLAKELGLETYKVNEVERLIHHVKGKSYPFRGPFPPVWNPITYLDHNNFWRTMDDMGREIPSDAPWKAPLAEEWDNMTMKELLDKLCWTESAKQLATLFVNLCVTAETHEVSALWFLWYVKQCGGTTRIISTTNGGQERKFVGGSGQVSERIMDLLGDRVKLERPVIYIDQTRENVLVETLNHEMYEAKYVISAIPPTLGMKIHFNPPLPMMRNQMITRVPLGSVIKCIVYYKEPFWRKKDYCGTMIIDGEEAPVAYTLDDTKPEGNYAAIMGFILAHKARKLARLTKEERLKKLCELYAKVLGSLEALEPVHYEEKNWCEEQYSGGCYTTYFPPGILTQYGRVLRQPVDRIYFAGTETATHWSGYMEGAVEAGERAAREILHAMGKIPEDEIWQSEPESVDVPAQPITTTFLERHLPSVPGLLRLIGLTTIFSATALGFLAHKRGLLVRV
UniProt Q5TCX8, sequence (whole entry, looked up): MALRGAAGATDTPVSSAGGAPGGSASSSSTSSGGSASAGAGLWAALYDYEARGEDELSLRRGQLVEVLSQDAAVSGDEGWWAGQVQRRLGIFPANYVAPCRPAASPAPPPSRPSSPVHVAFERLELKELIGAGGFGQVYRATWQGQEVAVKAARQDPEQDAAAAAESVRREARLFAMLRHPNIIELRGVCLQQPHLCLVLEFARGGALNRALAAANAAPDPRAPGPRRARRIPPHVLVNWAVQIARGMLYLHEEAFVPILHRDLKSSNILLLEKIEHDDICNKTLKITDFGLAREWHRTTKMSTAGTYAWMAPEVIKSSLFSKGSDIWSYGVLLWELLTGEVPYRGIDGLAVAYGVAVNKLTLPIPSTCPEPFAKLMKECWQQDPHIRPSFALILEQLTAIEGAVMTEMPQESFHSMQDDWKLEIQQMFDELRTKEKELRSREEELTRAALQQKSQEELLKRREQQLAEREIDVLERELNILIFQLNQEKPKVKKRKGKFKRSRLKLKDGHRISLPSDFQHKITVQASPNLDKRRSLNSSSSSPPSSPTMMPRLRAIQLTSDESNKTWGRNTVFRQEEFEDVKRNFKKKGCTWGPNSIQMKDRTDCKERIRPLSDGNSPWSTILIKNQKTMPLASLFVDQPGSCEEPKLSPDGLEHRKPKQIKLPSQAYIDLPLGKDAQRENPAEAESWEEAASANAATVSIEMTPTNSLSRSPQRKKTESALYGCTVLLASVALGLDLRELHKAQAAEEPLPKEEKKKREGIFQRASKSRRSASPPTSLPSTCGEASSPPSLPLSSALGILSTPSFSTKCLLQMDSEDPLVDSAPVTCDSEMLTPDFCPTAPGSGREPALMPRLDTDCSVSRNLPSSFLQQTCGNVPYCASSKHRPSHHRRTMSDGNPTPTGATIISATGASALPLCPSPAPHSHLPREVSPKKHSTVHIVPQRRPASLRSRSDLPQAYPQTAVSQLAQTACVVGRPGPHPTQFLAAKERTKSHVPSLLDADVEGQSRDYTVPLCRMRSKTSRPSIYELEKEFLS
UniProt O60285, sequence (whole entry, looked up): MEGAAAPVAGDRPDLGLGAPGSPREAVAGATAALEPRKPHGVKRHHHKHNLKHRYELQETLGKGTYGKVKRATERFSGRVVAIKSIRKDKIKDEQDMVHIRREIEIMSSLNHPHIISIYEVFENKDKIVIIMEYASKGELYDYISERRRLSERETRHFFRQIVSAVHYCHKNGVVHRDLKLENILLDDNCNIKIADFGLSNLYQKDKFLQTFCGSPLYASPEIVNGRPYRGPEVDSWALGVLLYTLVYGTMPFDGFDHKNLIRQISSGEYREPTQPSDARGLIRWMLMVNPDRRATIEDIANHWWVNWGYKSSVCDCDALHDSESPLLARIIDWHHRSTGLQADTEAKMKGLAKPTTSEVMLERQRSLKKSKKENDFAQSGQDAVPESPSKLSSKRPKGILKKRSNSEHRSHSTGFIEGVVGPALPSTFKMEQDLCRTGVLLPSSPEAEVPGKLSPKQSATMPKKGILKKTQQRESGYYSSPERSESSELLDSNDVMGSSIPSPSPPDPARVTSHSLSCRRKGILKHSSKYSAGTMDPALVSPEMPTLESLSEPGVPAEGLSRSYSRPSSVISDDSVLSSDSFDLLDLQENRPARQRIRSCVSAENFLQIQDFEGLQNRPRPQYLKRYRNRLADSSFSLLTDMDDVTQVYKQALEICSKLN

SMILES = CS(C)(=O)=Nc1ccc(-c2ccc(-c3nc4cc(O[C@@H]5CO[C@H]6[C@@H]5OC[C@H]6O)[nH]c4cc3F)cc2)cc1; target or system = androgen receptor human; assay = binding; conditions = 10 µM; measurement = inhibition; result = -14%
SMILES = CC(C)(C)C(=O)OCOP(=O)(OCOC(=O)C(C)(C)C)C1CCCN(O)C1=O (stereo not drawn); target or system = NCI-H522; measurement = CC50; result = 62.8 µM
SMILES = Cc1ccc(OC[C@H]2CCCN2C)cc1C(=O)N[C@H](C)c1cc(-c2cnn(C)c2)nc2ccccc12; target or system = African green monkey cells; conditions = 7.812 µM; measurement = viability; result = 99.8%
SMILES = O=C(NC1CCN(c2ncnc3[nH]cnc23)CC1)c1cccc(NS(=O)(=O)c2ccc(C(F)(F)F)cc2)c1; target or system = RNMT (Homo sapiens, UniProt O43148); assay = enzyme activity, inhibitor; conditions = 12.21 nM; measurement = inhibition; result = 10.4%
SMILES = Cc1cccc2c1cc(B(O)O)n2C(=O)OC(C)(C)C; target or system = Beta-lactamase (ampC, Escherichia coli K-12, UniProt P00811); assay = enzyme activity, inhibitor, CENTA hydrolysis absorbance; conditions = 10 µM; measurement = inhibition; result = < 10%
SMILES = Cc1ccc(O[C@H]2CCN(C)C2)cc1C(=O)N[C@H](C)c1cc(-c2cnn(C)c2)nc2ccccc12; target or system = Vero E6; conditions = 3.906 µM; measurement = viability; result = 101% and 97.4% and 97.6%
SMILES = C[n+]1cn([C@@H]2O[C@H](COP(=O)(O)CP(=O)([O-])OP(=O)(O)O)[C@@H](O)[C@H]2O)c2nc(N)nc(O)c21; target or system = mRNA decapping complex subunit 2, with Dcp1 (dcp2, Schizosaccharomyces pombe, UniProt O13828); conditions = 200 µM, 0.5 h; measurement = inhibition; result = 25.9%
SMILES = C=CC(=O)Nc1cc(-c2nn(C3CCC(N4CCN(C(C)=O)CC4)CC3)c3ncnc(N)c23)ccc1Oc1ccccc1 (stereo not drawn); target or system = NUAK1 (Homo sapiens, UniProt O60285); assay = inhibitor, KiNativ profiling; system = biochemical; conditions = 2 µM; measurement = inhibition; result = 2.7%
SMILES = COc1ccc(F)cc1S(=O)(=O)Nc1cnc2c(c1)C(=O)NCCO2; target or system = MAOB (Homo sapiens, UniProt P27338); assay = enzyme activity, inhibitor; conditions = 10 µM; measurement = inhibition; result = -7%
SMILES = CN(C)[C@H]1C[C@@]23CC[C@@]4(O2)C(=CC[C@]2(C)[C@@H](c5ccc6ccncc6c5)CC[C@H]24)C=C3[C@@H](O)[C@@H]1O; target or system = MAP3K21 (Homo sapiens, UniProt Q5TCX8); assay = ATP probe labelling, inhibitor, KiNativ profiling; conditions = 0.1 µM; measurement = inhibition; result = 14.9%
SMILES = O=[N+]([O-])c1ccc(-n2cc(CCS(=O)(=O)F)nn2)cc1; target or system = ache (Electrophorus electricus, UniProt O42275); assay = Ellman; conditions = 20 µM; measurement = inhibition; result = 46 ± 1.8%
SMILES = C[C@H](NCc1ccc(-c2ccc(C(F)(F)F)cc2)cc1)C(N)=O; target or system = CDK16 (Homo sapiens, UniProt Q00536); assay = cell-free assay, competition with immobilised ligand; conditions = 1 µM; measurement = inhibition; result = 30%
SMILES = O=C1NC(=O)c2c1c1cc(F)c[n+]3c1c1c2c2cc(O)ccc2[n]1[Ru-4]312([N]=C=S)[S+]3CC[S+]1CC[S+]2CC3 (stereo not drawn); target or system = RIPK2 (Homo sapiens, UniProt O43353); assay = enzyme activity; conditions = 100 nM, human enzyme, together with: 10 µM ATP; scale = relative to: untreated; measurement = remaining activity; result = 87%
SMILES = O=C(O)c1ccccc1/C=N/Nc1nc(-c2ccccc2Cl)cs1; target or system = NPM1-ALK fusion kinase; assay = kinase activity, inhibitor; conditions = 1 µM; measurement = inhibition; result = 20.9% and 20.7%
SMILES = O=C1NC2(CC2)COc2ncc(F)cc2[C@H]2COCCN2c2ccn3ncc1c3n2; system = Sprague-Dawley rat, male, thymus; conditions = oral, 2.5 mg/kg/day, 4 weeks dosing, end of recovery; measurement = organ-to-brain weight ratio; result = 20.6 ± 2.47%
SMILES = COc1ccccc1-c1n[nH]c2nc(NC3CCN(C(=O)Cc4ccc(F)cc4F)CC3)ncc12; assay = bead binding, competition bead pull-down, refers to: LINJ.30.1580; system = Leishmania donovani axenic amastigote extract; conditions = 10 µM; scale = relative to: vehicle; measurement = relative abundance; result = 0.24
SMILES = CC(C)[C@H]1NC(=O)C[C@H]2/C=C/CCSSC[C@@H](NC1=O)C(=O)N[C@H](Cc1cccc3ccccc13)C(=O)NCC(=O)O2; target or system = HIPK4 (Homo sapiens, UniProt Q8NE63); assay = enzyme activity, inhibitor; conditions = 10 µM; measurement = inhibition; result = 3.1%
SMILES = N[C@H](C(=O)N1CCCC1)C1CCN(c2nccc3c(-c4ncc(Cl)cc4Cl)cccc23)CC1; target or system = monoamine oxidase; conditions = 10 µM; measurement = inhibition; result = 1%

Excerpt of the above:
SMILES = CC(C)(C)C(=O)OCOP(=O)(OCOC(=O)C(C)(C)C)C1CCCN(O)C1=O (stereo not drawn); target or system = NCI-H522; measurement = CC50; result = 62.8 µM
SMILES = O=C(NC1CCN(c2ncnc3[nH]cnc23)CC1)c1cccc(NS(=O)(=O)c2ccc(C(F)(F)F)cc2)c1; target or system = RNMT (Homo sapiens, UniProt O43148); assay = enzyme activity, inhibitor; conditions = 12.21 nM; measurement = inhibition; result = 10.4%
